Published values from different studies.
Parts stem from different laboratories: compare values within a part only.

Study 1
Target: Replicase polyprotein 1ab, nsp13 helicase (rep, Severe acute respiratory syndrome coronavirus 2, UniProt P0DTD1)
Action: inhibitor
Tested at: 20 µM
| SMILES | inhibition [%] |
| --- | --- |
| N[C@@H](Cc1ccc(O)c(O)c1)C(=O)O | 6.91 |
| NC[C@H]1O[C@H](O[C@H]2[C@H](O)[C@@H](O[C@H]3O[C@H](CO)[C@@H](O)[C@H](N)[C@H]3O)[C@H](N)C[C@@H]2N)[C@H](N)[C@@H](O)[C@@H]1O | 9.04 |
| COc1cc(NC(=O)c2ccccn2)ccc1Cl | -0.1 |
| CN(C)CCCN1c2ccccc2CCc2ccccc21 | 2.88 |
| CC(C)C(=O)Nc1ccc([N+](=O)[O-])c(C(F)(F)F)c1 | -1.84 |
| C[C@@H](Oc1ccc(Cl)cc1)c1ccnc2ncnn12 | 5.02 |
| Cn1cc(-c2ccncc2)c(-c2ccc(OCc3ccc4ccccc4n3)cc2)n1 | 5.19 |
| CC(C)(C)NCC(O)c1cc(Cl)c(N)c(C(F)(F)F)c1 (stereo not shown) | 3.12 |
| N=C(N)NCCC[C@@H](NC(=O)[C@@H]1CCCN1C(=O)[C@@H]1CSSCCC(=O)N[C@@H](Cc2ccc(O)cc2)C(=O)N[C@@H](Cc2ccccc2)C(=O)N[C@@H](CCC(N)=O)C(=O)N[C@@H](CC(N)=O)C(=O)N1)C(=O)NCC(N)=O | 5.23 |
| N#CC(C#N)=Cc1ccc(O)c(O)c1 | -1.71 |
| C/C(O)=C(\C#N)C(=O)Nc1cc(Br)ccc1Br | 5.27 |
| CO[C@@H]1COCC[C@@H]1N[C@@H]1CC[C@@](C(=O)N2CCc3ncc(C(F)(F)F)cc3C2)(C(C)C)C1 | 7.47 |
| O=C(Nc1ccc(O)cc1)c1ccccc1O | -0.82 |
| CNCCC=C1c2ccccc2CCc2ccccc21 | 1.69 |
| CC(=O)N1CC[N+](C)(C)CC1 | 11 |
| CN1CCN(C(=O)C2C(C(=O)O)[C@H]3CC[C@@H]2O3)CC1 (stereo partly shown) | 2.9 |
| CCS(=O)(=O)N(C)[C@H]1c2cc(C#N)ccc2OC(C)(C)[C@@H]1O (racemic) | 1.41 |
| Cc1cccc(C)c1NC(=O)C[N+](C)(C)C | 2.21 |
| CNC(=O)[C@H](Cc1c[nH]c2ccccc12)NC(=O)[C@@H](CC(=O)NO)CC(C)C | 2.13 |
| C[C@H](CCC(=O)NCCS(=O)(=O)O)[C@H]1CC[C@H]2[C@@H]3[C@@H](O)C[C@@H]4C[C@H](O)CC[C@]4(C)[C@H]3CC[C@]12C | 8.27 |
| Cc1ccc(C(=O)Nc2ccc(Oc3cc4cnn(C)c4cc3-c3cn[nH]c3)c(F)c2)c(=O)n1-c1ccc(F)cc1 | -3.62 |
| CCN1CCN(Cc2ccc(Nc3ncc(F)c(-c4cc(F)c5nc(C)n(C(C)C)c5c4)n3)nc2)CC1 | 14.1 |
| COC(=O)Nc1nc2cc(C(=O)c3ccccc3)ccc2[nH]1 | 5.89 |
| C(=C\c1ccccc1)/CN1CCN(CCOC(c2ccccc2)c2ccccc2)CC1 | 4.2 |
| Cn1cnc([N+](=O)[O-])c1Sc1ncnc2[nH]cnc12 | 9.59 |

Study 2
Target: Interferon regulatory factor 5, full length, phosphomimetic (IRF5, Homo sapiens, UniProt Q13568-2, residues 1-514, S451D/S453D/S456D/S462D)
Technique: protein-binding microarray
Molecule type: double-stranded DNA, one strand shown
Medium: in vitro
Tested at: 940 nM top
Notes: 60-bp whole probe
Together with: salmon DNA 0.4 mg/ml
Reference: random background probes
Direction: higher = stronger binding
All sequences stand within: GCCTAGCAC … GTCTTGATTCGCTTGACGCTGCTG
| Oligonucleotide | fitted relative affinity |
| --- | --- |
| TCAGATTTCAGTTCCGATTAGTGCTAG | 2.22 z-score |
| TCATTTCTGTTGTCTGTGACTGTGCTA | 1.27 z-score |
| TTAGATTTGAGACTGGATTAGTGCTAG | -0.277 z-score |
| TTAGGTATCCTTTTCCTTTTGTGCTAG | 0.837 z-score |
| TCCTCTTTTTTGTTCCACGCGTGCTAG | 1.78 z-score |
| TACGGTTTCCTTCTCCTGACGTGCTAG | 1.53 z-score |
| GACGAACTAGGGACTGGAGACGTGCTA | -0.725 z-score |
| TTAGATTTCAGTTCCGATTCGTGCTAG | 1.74 z-score |

Study 3
Target: Sal-like protein 4, full length isoform A (SALL4, Homo sapiens, UniProt Q9UJQ4, residues 1-1053)
UniProt Q9UJQ4, sequence (whole entry, looked up): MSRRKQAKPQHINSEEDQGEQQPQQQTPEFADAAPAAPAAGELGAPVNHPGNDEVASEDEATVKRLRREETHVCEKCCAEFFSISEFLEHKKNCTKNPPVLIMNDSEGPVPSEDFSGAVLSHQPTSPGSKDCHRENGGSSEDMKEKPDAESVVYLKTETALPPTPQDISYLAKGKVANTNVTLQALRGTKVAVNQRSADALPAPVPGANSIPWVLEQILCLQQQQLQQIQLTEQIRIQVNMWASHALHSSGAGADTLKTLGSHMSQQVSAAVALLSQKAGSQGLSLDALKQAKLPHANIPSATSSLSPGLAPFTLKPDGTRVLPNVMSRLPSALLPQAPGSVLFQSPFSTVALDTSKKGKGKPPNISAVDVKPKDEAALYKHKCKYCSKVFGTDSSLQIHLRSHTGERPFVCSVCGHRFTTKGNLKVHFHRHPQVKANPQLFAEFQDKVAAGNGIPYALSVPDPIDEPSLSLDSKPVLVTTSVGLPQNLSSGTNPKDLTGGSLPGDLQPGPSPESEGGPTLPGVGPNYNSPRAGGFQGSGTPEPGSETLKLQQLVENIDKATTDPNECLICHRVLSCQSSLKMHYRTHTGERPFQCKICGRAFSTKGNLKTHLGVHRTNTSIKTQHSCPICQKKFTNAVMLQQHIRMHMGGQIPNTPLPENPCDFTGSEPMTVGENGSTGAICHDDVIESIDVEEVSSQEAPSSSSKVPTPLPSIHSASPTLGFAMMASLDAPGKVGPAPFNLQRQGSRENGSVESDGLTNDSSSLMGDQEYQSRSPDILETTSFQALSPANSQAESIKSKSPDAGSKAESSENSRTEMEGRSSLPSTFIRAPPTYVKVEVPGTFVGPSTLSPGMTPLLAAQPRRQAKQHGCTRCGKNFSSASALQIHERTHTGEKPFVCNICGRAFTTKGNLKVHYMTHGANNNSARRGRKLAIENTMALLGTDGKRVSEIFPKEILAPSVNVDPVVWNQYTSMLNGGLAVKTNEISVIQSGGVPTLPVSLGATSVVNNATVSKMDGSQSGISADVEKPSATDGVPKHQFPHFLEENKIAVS
Technique: universal PBM
Molecule type: double-stranded DNA, one strand shown
Medium: in vitro
Tested at: 600 nM
Notes: 8-mer, flanks averaged, mean of replicates
Direction: higher = stronger binding
| Oligonucleotide | E-score |
| --- | --- |
| AGCCTTAC | -0.158 |
| ATAAGAGA | 0.264 |
| GGTCAAGA | -0.044 |
| AGCGGTCA | -0.108 |
| AACAAGTG | 0.0657 |
| CAGCAGTA | -0.0185 |
| TTAAACAA | 0.204 |

Study 4
Target: Replicase polyprotein 1ab, main protease (rep, Severe acute respiratory syndrome coronavirus 2, UniProt P0DTD1)
Read-out: enzyme activity
Action: inhibitor
Tested at: 20 µM
Notes: primary screen
| Compound | inhibition |
| --- | --- |
| O=C(c1cccs1)c1no[n+]([O-])c1C(=O)c1cccs1 | 96.1% |
| CC(C)c1cc(CNc2nc(Nc3cc(C4CC4)[nH]n3)cc(N3CCN(C)CC3)n2)on1 | 44.8% |
| CN(CCCN1c2ccccc2CCc2ccccc21)CC(=O)c1ccc(Cl)cc1 | 81.7% |
| CCN(CC)C(=S)SSC(=S)N(CC)CC | 99.7% |

Study 5
Target: Histone acetyltransferase KAT6A, winged helix 2, GST fusion (KAT6A, Homo sapiens, UniProt Q92794, residues 85-181)
Technique: protein binding microarray
Molecule type: double-stranded DNA, one strand shown
Medium: in vitro
Tested at: not given
Notes: 8-mer, flanks averaged, mean of 2 arrays, mostly near background
Reference: not given
Direction: higher = stronger binding
Residues (chain): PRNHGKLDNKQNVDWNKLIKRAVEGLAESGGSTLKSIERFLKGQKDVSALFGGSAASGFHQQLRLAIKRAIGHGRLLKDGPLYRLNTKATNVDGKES
| Oligonucleotide | E-score |
| --- | --- |
| CAGGAAAC | -0.00352 |
| AACCTAGT | -0.0369 |
| GTGAGCAA | 0.0646 |
| AGCGATAA | 0.00357 |
| GGTCCGTA | 0.078 |
| TACGAAGA | -0.061 |
| CATTAGCA | 0.0668 |
| TCACAAGA | -0.0794 |
